Values quoted from earlier work, collected from citations in different studies.
Each numbered part shows a few of the values that one paper quotes. Values joined by “and” are separate records of one study, mostly repeats; a detail may differ.

Series 1
Target: O-GlcNAcase human
`CN1CCN(c2ccnc(NCCc3ccccc3)n2)CC1` has an IC50 of greater than 10000 nM.
The IC50 of `CC(=O)Nc1ncc(CN2CCC[C@H](Cc3cc(C)nc(C)c3)C2)s1` is reported as 1.3 nM.
`CC1CCN(c2ccnc(NCc3cn(C)cn3)n2)CC1` gave an IC50 of 46 nM.
For `CC(=O)Nc1nc(CN2CCC[C@H](Cc3cc(C)nc(C)c3)C2)cs1`, the IC50 was greater than 10000 nM.

Single results of other studies
For `COc1ccc2cc([C@H](C)C(=O)O)ccc2c1`, activity read “inactive” (Toxoplasma gondii; concentration not given).
With `[Ca+2]` the K1/2 was 286 nM and ~290 nM (cone CNG channel; cGMP-gated current; intact cone outer segment; together with: cGMP fixed).
`CCCCCCCCNC(C)C(O)c1ccc(SC(C)C)cc1` (centres unmarked) has a fold change of 2.92 (MCF7; microarray, Connectivity Map, item: BHLHE40 mRNA; concentration not given, 6 h; reference: DMSO).
`CNCCCC12CCC(c3ccccc31)c1ccccc12` — result for activity: “inactive” (Toxoplasma gondii; concentration not given).

Some of these lines once more (series 1):
`CN1CCN(c2ccnc(NCCc3ccccc3)n2)CC1` has an IC50 of greater than 10000 nM.
